Results gathered from unrelated publications.
Numbers after ± are the reported error.
4'-phosphopantetheinyl transferase PptT: 4'-phosphopantetheinyl transferase PptT (Mycobacterium tuberculosis, UniProt O33336)
Sequence of UniProt O33336 (whole entry, looked up): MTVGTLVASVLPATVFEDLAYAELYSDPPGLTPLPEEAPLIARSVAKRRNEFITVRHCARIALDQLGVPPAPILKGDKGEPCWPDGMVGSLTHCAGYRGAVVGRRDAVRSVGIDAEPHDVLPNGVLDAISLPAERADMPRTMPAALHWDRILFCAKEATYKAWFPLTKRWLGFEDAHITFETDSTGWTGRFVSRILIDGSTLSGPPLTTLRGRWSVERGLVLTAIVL
eis: N-acetyltransferase Eis (eis, Mycobacterium tuberculosis, UniProt P9WFK7)
Sequence of UniProt P9WFK7 (whole entry, looked up): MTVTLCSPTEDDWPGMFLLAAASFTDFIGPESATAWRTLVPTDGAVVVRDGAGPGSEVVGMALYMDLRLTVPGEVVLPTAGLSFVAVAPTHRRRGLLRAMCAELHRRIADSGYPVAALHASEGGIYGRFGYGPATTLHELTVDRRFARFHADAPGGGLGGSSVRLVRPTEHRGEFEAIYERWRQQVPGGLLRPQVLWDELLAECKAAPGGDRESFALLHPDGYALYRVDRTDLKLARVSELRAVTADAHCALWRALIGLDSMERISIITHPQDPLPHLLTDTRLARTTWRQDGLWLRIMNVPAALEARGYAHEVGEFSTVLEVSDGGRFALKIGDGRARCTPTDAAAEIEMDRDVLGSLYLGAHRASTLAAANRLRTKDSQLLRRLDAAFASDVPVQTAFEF
Sequence of UniProt O60656 (whole entry, looked up): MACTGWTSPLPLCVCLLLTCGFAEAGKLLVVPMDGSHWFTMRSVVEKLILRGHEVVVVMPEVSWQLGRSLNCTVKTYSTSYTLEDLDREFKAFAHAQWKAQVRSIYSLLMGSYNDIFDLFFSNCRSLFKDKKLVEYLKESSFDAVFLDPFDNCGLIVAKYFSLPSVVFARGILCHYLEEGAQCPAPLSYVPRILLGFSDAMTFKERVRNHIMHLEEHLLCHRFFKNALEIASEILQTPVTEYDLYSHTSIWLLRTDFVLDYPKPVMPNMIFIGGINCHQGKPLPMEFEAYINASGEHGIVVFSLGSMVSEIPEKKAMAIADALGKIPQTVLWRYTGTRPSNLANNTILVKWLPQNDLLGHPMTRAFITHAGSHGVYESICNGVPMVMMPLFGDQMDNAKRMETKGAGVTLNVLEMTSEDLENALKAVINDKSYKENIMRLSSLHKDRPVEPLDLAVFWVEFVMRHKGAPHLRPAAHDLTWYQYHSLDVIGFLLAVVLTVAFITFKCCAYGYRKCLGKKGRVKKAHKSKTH
Sequence of UniProt P33261 (whole entry, looked up): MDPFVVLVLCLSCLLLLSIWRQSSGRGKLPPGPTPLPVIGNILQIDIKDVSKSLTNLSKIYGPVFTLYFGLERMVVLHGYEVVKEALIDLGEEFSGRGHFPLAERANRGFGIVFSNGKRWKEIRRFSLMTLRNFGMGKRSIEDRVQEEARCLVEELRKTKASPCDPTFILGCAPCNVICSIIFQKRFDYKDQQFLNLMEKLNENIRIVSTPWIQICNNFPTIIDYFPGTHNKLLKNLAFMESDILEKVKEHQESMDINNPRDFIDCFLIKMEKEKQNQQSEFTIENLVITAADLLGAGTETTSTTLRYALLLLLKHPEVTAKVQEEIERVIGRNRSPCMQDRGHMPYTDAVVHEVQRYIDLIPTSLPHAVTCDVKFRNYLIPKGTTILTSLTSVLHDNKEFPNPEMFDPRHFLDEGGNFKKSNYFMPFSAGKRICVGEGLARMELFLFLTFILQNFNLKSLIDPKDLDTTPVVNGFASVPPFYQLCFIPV
Sequence of UniProt P9WNX1 (whole entry, looked up): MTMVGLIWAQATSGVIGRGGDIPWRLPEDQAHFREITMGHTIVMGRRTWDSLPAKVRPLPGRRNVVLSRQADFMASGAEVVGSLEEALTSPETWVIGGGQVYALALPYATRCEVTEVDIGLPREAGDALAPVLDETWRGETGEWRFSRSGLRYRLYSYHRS

With `CCOC(=O)CC[C@H](NC(=O)c1ccc(N(C)Cc2ccc3[nH]c(C)nc(=O)c3c2)s1)C(=O)OCC` the IC50 was 7.5 µM (4'-phosphopantetheinyl transferase PptT; enzyme activity, inhibitor, fluorescence polarization; enzyme 100 nM).
`CCC1CCc2c(sc3nc(SCC(=O)NCCN(CC)CC)nc(N)c23)C1` (stereo not drawn) gave an IC50 of 1.1 ± 0.2 µM (eis; inhibitor).
`O=S(=O)(O)CC1CSSCC(CS(=O)(=O)O)SS1` (stereo not drawn) gave an IC50 of 18 ± 1.3 µM (Response regulator PhoP (Mycobacterium tuberculosis, UniProt P71814); DNA binding, fluorescence polarization; with: 6-FAM DNA 10 nM).
With `CCCCCc1cc(O)c2c(c1)OC(C)(C)C1CCC(C)=CC21` (single isomer, unassigned; (-)) the IC50 was 3.6 ± 0.7 µM (Cytochrome P450 2C19 (CYP2C19, Homo sapiens, UniProt P33261); enzyme activity, inhibitor; microsomes from HEK293 cells; pH 7.4, with: omeprazole).
For `CC(C)(C)C1CCc2c(sc3nc(SCC(=O)NCCN4CCOCC4)nc(N)c23)C1` (stereo not drawn), the IC50 was over 200 µM (eis; inhibitor).
The IC50 of `COC(=O)[C@H](CCCNC(=O)OC(C)(C)C)NC(=O)c1ccc(NCc2ccc3nc(N)nc(N)c3c2Cl)cc1` is reported as over 25 µM (4'-phosphopantetheinyl transferase PptT; enzyme activity, inhibitor, fluorescence polarization; enzyme 100 nM).
`Nc1nc(SCCN2CCCCC2)nc2sc3c(c12)CCC3` gave an IC50 of 1.9 ± 0.2 µM (eis; inhibitor).
`C#CCN(Cc1ccc2nc(N)nc(N)c2c1)c1ccc(C(=O)N[C@@H](CCC(=O)OCC)C(=O)OCC)cc1` gave an IC50 of 0.2 µM (Dihydrofolate reductase (folA, Mycobacterium tuberculosis, UniProt P9WNX1); enzyme activity, inhibitor).
For `CCCCCc1cc(O)c2c(c1)OC(C)(C)C1CCC(C)=CC21` (single isomer, unassigned; (-)), the IC50 was 11 ± 3 µM (UDP-glucuronosyltransferase 1A9 (UGT1A9, Homo sapiens, UniProt O60656); propofol glucuronidation, inhibitor; recombinant HEK293 microsomes; pH 7.4, with: propofol).
